Results from different studies.
Protocols differ between the studies behind these lines. “And” joins repeats or separate records; there may be more than shown. Numbers after ± are the reported error. ≈ marks a conversion by molar mass, not a printed value.

| Structure (SMILES) | tested on | test | system | conditions | scale | quantity | value |
| --- | --- | --- | --- | --- | --- | --- | --- |
| CNC(=O)c1c(N(C)N=O)ncn1C | Salmonella typhimurium | plate incorporation | TA98, water | 150 µg/plate, without S9 |  | revertant colonies per plate | 33 ± 9 |
| O=[N+]([O-])c1ccc(N2CCC(NCCC(O)c3ccc(F)c4ccccc34)CC2)c(C(F)(F)F)c1 (stereo not drawn) | Salmonella typhimurium | SOS/umu test | TA1535/pSK1002, TGA medium | 0.001 mg/mL, 4 h, with: rat liver S9 |  | survival | 121% |
| Cc1cc(C(=O)NC(C)(C)COc2cccc3c2C(N)=NS(=O)(=O)N3)cc(C)n1 | Escherichia coli | Ames test, initial | WP2 uvrA | 5.00 µg/plate, with: rat liver S9 | baseline: solvent control | revertant ratio | 1 |
| CN1CCC(OC(=O)C(Oc2ccc(Cl)cc2)Oc2ccc(Cl)cc2)CC1 | African green monkey cells |  |  | 5 days |  | CC50 | 38 µM |
| O=NN1CCN(C2CCCC2)CC1 | Salmonella typhimurium | mutagenicity, Ames plate incorporation | TA1537 | 50 µg/plate, 3 d, without S9, methanol |  | revertant colonies per plate | 15 ± 5 |
| COc1cccc(-c2n[nH]c(SCc3ccccn3)n2)c1OC | Salmonella typhimurium | Ames test, preincubation | TA98 | 0.25 mg/plate, with rat liver S9 |  | revertant colonies per plate | 26 |
| O=[N+]([O-])c1ccc(N2CCN(CCC(O)c3ccc(F)cc3)CC2)c(C(F)(F)F)c1 (stereo not drawn) | Salmonella typhimurium | SOS response, SOS/umu test | TA1535/pSK1002, TGA medium | 0.000244 mg/mL, 4 h, without S9 | baseline: untreated | induction factor | 0.8 |
| [Cl-].[Cl-].[Pt+2].[Ru+2].c1ccc(-c2nc3ccccc3nc2-c2ccccn2)nc1.c1cnc2c(c1)ccc1cccnc12.c1cnc2c(c1)ccc1cccnc12 | Danio rerio |  | embryos | 90 µM, 0 h |  | survival rate | 100% |
| c1cc2ccc3cccc4ccc(c1)c2c34 | Oncorhynchus mykiss | IVIVE from liver S9 |  |  |  | hepatic intrinsic clearance kmet,int | 17300 h⁻¹ and 23000 h⁻¹ and 20300 h⁻¹ |
| COc1ccnc(C(=O)O)c1O | Oncorhynchus mykiss | mortality, static-renewal water exposure |  | 96 h |  | LC50 | > 10 µg/mL |
| [Cl-].[Cl-].[Pt+2].[Ru+2].c1ccc(-c2nccnc2-c2ccccn2)nc1.c1cnc2c(c1)ccc1cccnc12.c1cnc2c(c1)ccc1cccnc12 | Danio rerio |  | embryos | 90 µM, 96 h |  | survival rate | 33.3 ± 2.6% |
| C=C(NC(=O)c1nccc(OC)c1O)C(=O)O[C@@H](C)[C@H](OC(=O)C(C)C)[C@@H](Cc1ccccc1)C(=O)O | Oncorhynchus mykiss | mortality, static-renewal water exposure |  | 96 h |  | LC50 | 7.1 µg/mL (≈ 13.8 µM) |
| CC(=O)N1CCC(C(=O)N2CCN3C(=O)c4cc(-c5ccccc5)ccc4NC(=O)C3C2)CC1 (stereo not drawn) | Escherichia coli |  | WP2 uvrA | 1.58 µg/plate, with rat liver S9 | baseline: vehicle | revertant fold increase | 0.8 |
| OC(CCN1CC=C(c2ccc(F)cc2)CC1)c1ccc(F)c2ccccc12 (stereo not drawn) | Salmonella typhimurium | SOS/umu test | TA1535/pSK1002 | 0.016 mg/mL, 4 h, without S9, lower range |  | survival | 84.2% |
| Cc1[nH]c(/C=C2\C(=O)Nc3ccccc32)c(C)c1CCC(=O)O | African green monkey cells |  |  | 5 days |  | CC50 | > 25.1 µM |
| O=C1c2c(O)c(=O)ccn2N([C@@H]2c3ccccc3SCc3c2ccc(F)c3F)[C@@H]2COCCN12 |  |  | BALB/c mouse | subcutaneous, 0.25 mg/kg q12h |  | Cmax | 18.4 ng/mL |
| [Cl-].[Cl-].[Pt+2].[Ru+2].c1ccc(-c2nc3cc4ccccc4cc3nc2-c2ccccn2)nc1.c1cnc2c(c1)ccc1cccnc12.c1cnc2c(c1)ccc1cccnc12 | Danio rerio |  | embryos | 30 µM, 48 h |  | hatching rate | 36.7 ± 5.8% |
| CC[C@H](C)[C@@H]1NC(=O)[C@H](CO)NC(=O)[C@H](CCSC)NC(=O)CNC(=O)[C@H](C)NC(=O)[C@H]([C@@H](C)CC)NC(=O)[C@@H](NC(=O)[C@@H](NC(=O)[C@@H](NC(=O)[C@H](C)NC(=O)[C@H](CCCCN)NC(=O)[C@H](C)NC(=O)[C@H](Cc2c[nH]c3ccccc23)NC(=O)[C@H](CC(=O)O)NC(=O)[C@@H](NC(=O)[C@@H](NC(=O)[C@@H]2CSSC[C@H](NC(=O)[C@H](Cc3ccc(O)cc3)NC(=O)[C@@H](NC(=O)CNC(=O)[C@H](CC(N)=O)NC(=O)CNC(=O)[C@H](Cc3ccc(O)cc3)NC(=O)[C@H](Cc3ccc(O)cc3)NC(=O)[C@H](CCCCN)NC(=O)CNC(=O)[C@H](CO)NC(=O)[C@H](Cc3c[nH]cn3)NC(=O)[C@@H](NC(=O)[C@@H](N)[C@@H](C)O)[C@@H](C)O)C(C)C)C(=O)N[C@@H]([C@@H](C)O)C(=O)N[C@@H](CCCCN)C(=O)N[C@@H](CC(N)=O)C(=O)N[C@@H](CCCCN)C(=O)N2)[C@@H](C)O)C(C)C)[C@@H](C)O)[C@@H](C)O)CSSC[C@@H](C(=O)O)NC(=O)[C@H](CCCCN)NC(=O)CNC(=O)[C@@H]2CCCN2C(=O)[C@H]([C@@H](C)CC)NC(=O)[C@H](C)NC(=O)CNC(=O)CNC(=O)[C@H](CC(C)C)NC(=O)[C@H](Cc2ccccc2)NC(=O)CNC(=O)CNC1=O (single isomer, unassigned) | Pediococcus damnosus |  | CECT 4797 | 30 min, 80 °C |  | MIC after heating | > 6 µg/mL |
